# Experimental data gathered from unrelated publications.
# Lines come from different studies, so protocols differ. ± gives the spread as reported.
SMILES,test,test system,setting,how to read,endpoint,value
O=S(=O)(Nc1ccccc1)c1ccc(NC(=S)Nc2ccccc2)cc1,,"female mice, small intestine","oral, 80 mg/kg daily 14 days",baseline: body weight,relative organ weight,3.06%
CN1CC[C@@H](c2c(O)cc(O)c3c(=O)cc(-c4ccc(C(F)(F)F)cc4Cl)oc23)[C@@H]1CO,item: Pyrexia,AML,"oral, 150 mg, intermittent dosing",,patients with adverse event,25%
CN1CCN(S(=O)(=O)c2cc([N+](=O)[O-])ccc2N(CCOS(C)(=O)=O)CCOS(C)(=O)=O)CC1,,"naive NOD/SCID mice, pooled blood","intraperitoneal, 12.5 mg/kg, week 4",,alkaline phosphatase,70 U/L
O=C(Nc1ccccc1)C1CCN(C(=O)Oc2cccnc2)CC1,adverse event reporting,healthy women,"oral, 20 mg, 7 days",,subjects with Dysmenorrhoea adverse event,14.3%
Cn1c(-c2ccc(C(N)=O)cc2F)nnc1C(C)(C)Oc1c(F)cc(Cl)cc1F,,human,"oral, 60 mg, single ascending dose",,musculoskeletal disorder TEAE,0%
C[C@]1(CO)Cc2ncn(-c3ccc(C#N)c(Cl)c3)c2C(=O)O1,,"human, plasma","80 mg single dose, median",,tmax,1 h
COc1ncnn2ccc(-c3cnc4nc(C)n(Cc5nnc([C@@H](C)F)o5)c4c3)c12,,human,"oral, dose not given, grade 4",,patients with increased blood creatinine,0%
CC(C)c1nc(N(C)S(C)(=O)=O)nc(-c2ccc(F)cc2)c1/C=C/[C@@H](O)C[C@@H](O)CC(=O)O,,healthy human subjects,"oral, dose not given, study CL-0537 safety set",,incidence of blurred vision,3.6%
COc1ccc(CCC2CCCC(CCc3ccc(OC)cc3)N2C[C@@H](O)CO)cc1.Cl (stereo in doubt),,rabbit Purkinje fibres,"0.3 µM, cycle length 0.5 s",baseline: baseline,resting membrane potential change,1.6 ± 1.7 mV
CCc1ccc(CC/C=C/c2ccc3c(c2)C(=O)CC3)cc1,,"Sprague-Dawley rat, female, serum","oral, 450 mg/kg/day, 14 days",,total bilirubin,1.01 µM
C=CCNc1c(O)cc2c(O)c1C[C@@H](C)C[C@H](OC)[C@H](O)[C@@H](C)/C=C(\C)[C@H](OC(N)=O)[C@@H](OC)/C=C\C=C(/C)C(=O)N2,item: first-degree AV block,"patients with unresectable or metastatic GIST, STS or other tumours","intravenous, 300 mg/m^2",,treatment-emergent adverse events,33%
Cc1cc(C)nc(Nc2ncc(C(=O)NCCc3c(C)[nH]c4ccccc34)cn2)c1,,rat liver microsomes,1 µM,,maximal hepatic bioavailability,17%
C[C@@H]1NC(=O)[C@H](CCCCNC(=O)CO/N=C/C(=O)NCCCC[C@@H]2NC(=O)[C@@H](Cc3ccccc3)NC(=O)[C@H](CC(=O)O)NC(=O)CNC(=O)[C@H](CCCNC(=N)N)NC2=O)NC(=O)CNC(=O)[C@@H]2CCCN2C(=O)[C@H](CCCCNC(=O)CO/N=C/C(=O)NCCCC[C@@H]2NC(=O)[C@@H](Cc3ccccc3)NC(=O)[C@H](CC(=O)O)NC(=O)CNC(=O)[C@H](CCCNC(=N)N)NC2=O)NC(=O)[C@H](CCCCNC(=O)[C@H](CCCCN)NC(=O)[C@H](Cc2ccccc2)NC(=O)CNC(=O)CN2CCCNCCNCCCNCC2)NC(=O)[C@H](CCCCNC(=O)CO/N=C/C(=O)NCCCC[C@@H]2NC(=O)[C@@H](Cc3ccccc3)NC(=O)[C@H](CC(=O)O)NC(=O)CNC(=O)[C@H](CCCNC(=N)N)NC2=O)NC(=O)CNC(=O)[C@@H]2CCCN2C(=O)[C@H](CCCCNC(=O)CO/N=C/C(=O)NCCCC[C@@H]2NC(=O)[C@@H](Cc3ccccc3)NC(=O)[C@H](CC(=O)O)NC(=O)CNC(=O)[C@H](CCCNC(=N)N)NC2=O)NC1=O [copper-64 labelled],,"normal mice, stomach","intravenous, 0.74 MBq, 3 h post-injection",,tissue uptake,1.91 ± 0.35 %ID/g
Clc1ccc(-c2ccccc2)cc1,,"Sprague-Dawley rats, female, serum","inhalation, 23 µg/rat, 2 h after exposure",,alanine aminotransferase,95 ± 65 U/L

# Excerpt of the above:
SMILES,test,test system,setting,how to read,endpoint,value
O=S(=O)(Nc1ccccc1)c1ccc(NC(=S)Nc2ccccc2)cc1,,"female mice, small intestine","oral, 80 mg/kg daily 14 days",baseline: body weight,relative organ weight,3.06%
CN1CC[C@@H](c2c(O)cc(O)c3c(=O)cc(-c4ccc(C(F)(F)F)cc4Cl)oc23)[C@@H]1CO,item: Pyrexia,AML,"oral, 150 mg, intermittent dosing",,patients with adverse event,25%
